Assay results collected from several papers.
Each numbered part is a random draw from the data of one study; scales do not carry over between parts. Changes are numbered by the printed parent chain.
Chain of UniProt Q00535 (whole entry, looked up): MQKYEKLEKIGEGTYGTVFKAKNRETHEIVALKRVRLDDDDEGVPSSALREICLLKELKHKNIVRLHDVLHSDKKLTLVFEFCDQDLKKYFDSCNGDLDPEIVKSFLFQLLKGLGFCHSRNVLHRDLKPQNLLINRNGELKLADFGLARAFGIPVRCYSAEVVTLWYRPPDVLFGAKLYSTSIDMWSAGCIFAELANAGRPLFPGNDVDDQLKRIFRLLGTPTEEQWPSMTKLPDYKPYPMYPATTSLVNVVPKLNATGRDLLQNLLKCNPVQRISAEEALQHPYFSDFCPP
Chain of UniProt Q5S007 (whole entry, unmodified, looked up): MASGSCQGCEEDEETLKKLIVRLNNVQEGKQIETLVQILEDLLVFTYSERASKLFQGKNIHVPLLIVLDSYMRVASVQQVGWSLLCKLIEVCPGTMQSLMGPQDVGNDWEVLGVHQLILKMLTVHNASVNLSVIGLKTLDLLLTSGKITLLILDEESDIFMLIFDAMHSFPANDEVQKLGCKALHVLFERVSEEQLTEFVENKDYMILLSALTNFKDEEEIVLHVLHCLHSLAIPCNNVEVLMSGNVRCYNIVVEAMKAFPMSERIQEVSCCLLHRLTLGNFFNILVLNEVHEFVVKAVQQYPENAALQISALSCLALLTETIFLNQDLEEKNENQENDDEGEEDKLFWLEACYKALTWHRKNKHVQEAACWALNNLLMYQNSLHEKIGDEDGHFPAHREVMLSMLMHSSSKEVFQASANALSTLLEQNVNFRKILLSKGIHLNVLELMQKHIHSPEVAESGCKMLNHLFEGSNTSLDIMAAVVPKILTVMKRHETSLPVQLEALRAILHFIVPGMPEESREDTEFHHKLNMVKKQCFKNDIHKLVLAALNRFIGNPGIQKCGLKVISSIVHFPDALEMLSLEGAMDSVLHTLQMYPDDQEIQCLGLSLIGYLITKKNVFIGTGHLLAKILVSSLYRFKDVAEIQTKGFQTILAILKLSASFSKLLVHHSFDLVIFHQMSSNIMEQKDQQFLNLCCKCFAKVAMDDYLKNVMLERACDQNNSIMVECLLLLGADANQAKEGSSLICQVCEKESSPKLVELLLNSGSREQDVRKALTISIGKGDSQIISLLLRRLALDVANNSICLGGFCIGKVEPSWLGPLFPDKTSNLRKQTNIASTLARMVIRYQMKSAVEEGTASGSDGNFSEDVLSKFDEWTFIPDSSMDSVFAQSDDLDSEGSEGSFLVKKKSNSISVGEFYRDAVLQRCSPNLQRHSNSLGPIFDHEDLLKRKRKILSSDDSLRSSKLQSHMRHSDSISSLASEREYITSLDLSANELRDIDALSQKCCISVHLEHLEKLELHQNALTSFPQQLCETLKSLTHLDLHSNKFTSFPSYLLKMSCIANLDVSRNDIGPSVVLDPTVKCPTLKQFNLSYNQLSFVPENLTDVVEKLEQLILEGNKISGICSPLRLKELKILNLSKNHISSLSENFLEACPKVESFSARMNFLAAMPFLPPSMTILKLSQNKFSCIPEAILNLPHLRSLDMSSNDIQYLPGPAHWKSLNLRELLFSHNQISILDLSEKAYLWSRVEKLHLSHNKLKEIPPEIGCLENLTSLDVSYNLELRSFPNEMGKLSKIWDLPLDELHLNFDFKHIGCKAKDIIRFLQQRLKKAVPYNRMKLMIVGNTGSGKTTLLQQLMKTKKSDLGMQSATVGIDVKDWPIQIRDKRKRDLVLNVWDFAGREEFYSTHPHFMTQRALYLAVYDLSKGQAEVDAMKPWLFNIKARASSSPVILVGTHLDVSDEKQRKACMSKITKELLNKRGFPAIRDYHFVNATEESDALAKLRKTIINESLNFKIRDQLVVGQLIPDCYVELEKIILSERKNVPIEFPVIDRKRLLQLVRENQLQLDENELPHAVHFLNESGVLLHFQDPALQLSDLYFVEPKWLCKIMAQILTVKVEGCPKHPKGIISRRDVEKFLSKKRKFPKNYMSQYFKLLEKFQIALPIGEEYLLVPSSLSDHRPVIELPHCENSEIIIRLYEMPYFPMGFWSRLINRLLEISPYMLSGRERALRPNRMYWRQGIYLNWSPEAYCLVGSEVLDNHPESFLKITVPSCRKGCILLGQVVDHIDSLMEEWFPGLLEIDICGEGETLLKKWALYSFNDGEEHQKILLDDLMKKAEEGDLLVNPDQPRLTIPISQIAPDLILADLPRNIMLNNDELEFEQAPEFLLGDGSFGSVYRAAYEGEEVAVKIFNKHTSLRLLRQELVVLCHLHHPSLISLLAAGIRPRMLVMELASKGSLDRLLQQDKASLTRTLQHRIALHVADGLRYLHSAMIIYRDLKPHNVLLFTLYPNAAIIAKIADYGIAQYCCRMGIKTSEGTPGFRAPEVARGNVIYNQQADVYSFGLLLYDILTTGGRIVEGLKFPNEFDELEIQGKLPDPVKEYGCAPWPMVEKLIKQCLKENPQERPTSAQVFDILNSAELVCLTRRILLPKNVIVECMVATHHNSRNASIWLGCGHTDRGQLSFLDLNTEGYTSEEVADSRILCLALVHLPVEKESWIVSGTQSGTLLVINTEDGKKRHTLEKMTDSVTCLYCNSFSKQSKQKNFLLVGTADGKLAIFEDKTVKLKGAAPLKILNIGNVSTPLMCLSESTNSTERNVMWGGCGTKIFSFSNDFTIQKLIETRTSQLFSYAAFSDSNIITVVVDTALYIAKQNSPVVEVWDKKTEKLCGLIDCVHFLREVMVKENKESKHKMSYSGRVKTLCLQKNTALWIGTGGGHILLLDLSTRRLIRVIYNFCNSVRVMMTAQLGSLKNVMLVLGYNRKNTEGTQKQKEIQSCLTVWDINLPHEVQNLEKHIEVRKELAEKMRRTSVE
Chain of UniProt Q12866 (whole entry, looked up): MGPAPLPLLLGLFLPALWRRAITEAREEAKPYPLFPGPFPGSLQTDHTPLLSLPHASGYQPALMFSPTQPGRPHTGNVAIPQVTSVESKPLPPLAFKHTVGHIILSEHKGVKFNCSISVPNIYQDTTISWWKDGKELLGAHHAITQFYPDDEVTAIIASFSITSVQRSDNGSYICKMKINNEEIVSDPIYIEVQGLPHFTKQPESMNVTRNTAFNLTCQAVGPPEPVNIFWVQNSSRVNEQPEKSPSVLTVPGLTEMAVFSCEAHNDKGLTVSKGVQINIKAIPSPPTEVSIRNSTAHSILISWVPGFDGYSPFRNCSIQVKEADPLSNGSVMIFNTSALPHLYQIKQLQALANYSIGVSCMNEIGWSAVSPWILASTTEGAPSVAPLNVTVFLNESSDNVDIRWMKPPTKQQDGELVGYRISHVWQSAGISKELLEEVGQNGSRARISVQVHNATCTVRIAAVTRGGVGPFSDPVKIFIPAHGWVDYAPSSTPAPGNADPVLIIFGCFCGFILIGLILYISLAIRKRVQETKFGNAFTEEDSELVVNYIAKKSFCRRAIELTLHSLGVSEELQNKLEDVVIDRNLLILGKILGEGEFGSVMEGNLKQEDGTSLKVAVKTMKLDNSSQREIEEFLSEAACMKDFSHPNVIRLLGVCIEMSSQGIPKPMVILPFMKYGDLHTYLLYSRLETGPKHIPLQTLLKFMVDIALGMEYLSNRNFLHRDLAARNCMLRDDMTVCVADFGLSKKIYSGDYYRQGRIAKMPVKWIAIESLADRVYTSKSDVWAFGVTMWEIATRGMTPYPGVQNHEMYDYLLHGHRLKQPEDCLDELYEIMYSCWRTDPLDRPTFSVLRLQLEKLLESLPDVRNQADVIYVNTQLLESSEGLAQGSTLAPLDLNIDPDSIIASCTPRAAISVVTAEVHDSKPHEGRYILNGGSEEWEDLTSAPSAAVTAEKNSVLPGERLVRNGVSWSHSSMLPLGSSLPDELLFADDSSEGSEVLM

Block 1 — effect on: cell-free assay; method: competition with immobilised ligand; concentration: 1 µM; measurement: remaining binding
SMILES: COc1cccc(CNC(=O)c2nc3scc(COCc4ccc(C(=O)O)cc4)c3c(=O)[nH]2)c1
target = Leucine-rich repeat serine/threonine-protein kinase 2 (LRRK2, Homo sapiens, UniProt Q5S007, G2019S); result = 94.6%
target = Cyclin-dependent kinase 5 (CDK5, Homo sapiens, UniProt Q00535); result = 95.7%
target = cAMP-dependent protein kinase catalytic subunit beta (PRKACB, Homo sapiens, UniProt P22694); result = 91.1%
target = Tyrosine-protein kinase Mer (MERTK, Homo sapiens, UniProt Q12866); result = 88.3%

Block 2 — method: RNA Bind-n-Seq; molecule type: RNA; matrix: in vitro; concentration: 1 µM; setting: whole 134-nt RNA, ends assumed; together with: 150 mM KCl; reference: input library; direction: higher = stronger binding; measurement: log2 enrichment
Target: Ras GTPase-activating protein-binding protein 1, C-terminal RGG region (G3BP1, Homo sapiens, UniProt Q13283)
Chain of UniProt Q13283 (whole entry, looked up): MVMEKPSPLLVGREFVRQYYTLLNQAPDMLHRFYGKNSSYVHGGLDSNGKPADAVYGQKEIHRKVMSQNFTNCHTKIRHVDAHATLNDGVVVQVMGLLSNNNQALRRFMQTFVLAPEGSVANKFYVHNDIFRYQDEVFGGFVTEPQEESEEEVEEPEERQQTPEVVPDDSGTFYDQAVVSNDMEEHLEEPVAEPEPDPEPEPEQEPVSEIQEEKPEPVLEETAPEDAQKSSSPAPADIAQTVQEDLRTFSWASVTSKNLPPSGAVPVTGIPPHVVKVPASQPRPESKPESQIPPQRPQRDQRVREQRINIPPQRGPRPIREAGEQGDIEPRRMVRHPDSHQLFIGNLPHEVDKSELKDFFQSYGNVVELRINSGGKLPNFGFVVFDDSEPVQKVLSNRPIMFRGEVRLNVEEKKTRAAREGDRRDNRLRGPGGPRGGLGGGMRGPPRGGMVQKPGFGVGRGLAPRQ
Shared flanks, not repeated: GGGAGUUCUACAGUCCGACGAUC … UGGAAUUCUCGGGUGUCAAGG
Strand = UCAAGUCCUGUGCUACACAUCGUAUGUACCGAAUCGGUUUGGUUUGGUUUGGGGAAAGUAUUAUGUUACGCCGUUCGGAUCUGCACUUCC; result = -1.15
Strand = UAACUUUAGAGGAGGAUCUGAUGGAUAUGGCAGUGGACGUGGAUUUGGGGAUGGCUAUAAUGGGUAUGGAGGAGGACCUGGUGGUGGCAA; result = -1.07
Strand = CACAGACAACACGCACCCACACAGACACAGAGGGAAGGGGUUGGGAUGGGGACAGGGUGCUCAGCAGGGCGGGGUAGGACCCCAGCCCCU; result = -0.869
Strand = UGGCCCUGGUGGCAUGCGGGGAGGAAGAGGUGGCCUCAUGGAUCGUGGUGGUGCCGGUGGAAUGUUCAGAGGUGGCCGUGGUGGAGACAG; result = 2.16
Strand = GGGGACGGCAAAACAGAACAGAAAGGCGGAGAUAAAAAGAGGGGUGUUAAAAGACCACGAGAAGAUCAUGGCCGUGGAUAUUUUGAGUAC; result = -0.209
Strand = UGGCCUGCACAUUCAGCUGCAUGAUGAAGUUCACUGUCAAGGACUGUGAUCCCACCACUGGGGAGACUGAUGACGAAGGCUAUGAGGAUG; result = -0.963
Strand = UGGGAGGUGGAUUUUGUUUAUUUUUUUAGCUCAUUUCCAGGGGUGGGAAUUUUUUUUUAAUAUGUUUCAUGAAUAAAGUUGUUUUUGAAA; result = 2.46
Strand = CUGUGCUACACAUCGUAUGUACCGAAUCGGGAAAAAAAGGGGAAAAAAAGGAAAAAAAGGGGAAAGUAUUAUGUUACGCCGUUCGGAUCU; result = -1.18

Block 3 — target: NFIL3, bZIP domain (human); method: DHFR protein complementation; matrix: yeast; reference: wild-type JUN-FOS pair; direction: higher = stronger binding; measurement: binding fitness
Setting: single substitutions, most at no-binding floor
Parent: JUN, bZIP domain (human); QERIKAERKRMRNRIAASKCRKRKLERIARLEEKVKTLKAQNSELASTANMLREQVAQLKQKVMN; partner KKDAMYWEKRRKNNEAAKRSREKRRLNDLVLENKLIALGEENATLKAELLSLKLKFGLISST
Substitution = E32K; result = -1.48 natural log
Substitution = E44R; result = -1.44 natural log
Substitution = R53N; result = -1.44 natural log
Substitution = T37C; result = -1.04 natural log
Substitution = L31N; result = -1.51 natural log
Substitution = S47R; result = -1.37 natural log
Substitution = S43D; result = -1.49 natural log
Substitution = M51G; result = -1.44 natural log

Block 4 — effect on: enzyme activity; mode: inhibitor; concentration: 0.5 µM; reference: control; measurement: remaining activity
Target: Protein-tyrosine kinase 6 (PTK6, Homo sapiens, UniProt Q13882)
Chain of UniProt Q13882 (whole entry, looked up): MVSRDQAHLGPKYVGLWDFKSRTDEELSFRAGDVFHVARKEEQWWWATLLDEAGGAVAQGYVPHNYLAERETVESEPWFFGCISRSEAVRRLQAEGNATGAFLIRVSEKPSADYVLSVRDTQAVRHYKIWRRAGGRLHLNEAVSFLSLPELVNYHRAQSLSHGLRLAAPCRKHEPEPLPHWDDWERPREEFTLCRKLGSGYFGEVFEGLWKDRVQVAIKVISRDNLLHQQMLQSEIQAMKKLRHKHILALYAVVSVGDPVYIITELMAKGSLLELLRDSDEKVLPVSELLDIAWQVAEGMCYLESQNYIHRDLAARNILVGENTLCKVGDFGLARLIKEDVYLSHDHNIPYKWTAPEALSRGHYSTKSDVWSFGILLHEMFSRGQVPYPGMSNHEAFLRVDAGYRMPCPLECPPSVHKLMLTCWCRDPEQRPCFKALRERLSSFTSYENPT
SMILES = Nc1ncnc2n[nH]c(Nc3ccc(F)cc3)c12; result = 68.3%
SMILES = COc1ccc(C(=O)Nc2sc3c(c2C(N)=O)CCCC3)cc1OC; result = 97.8%
SMILES = COc1cc2ncnc(Nc3ccc(F)c(Cl)c3)c2cc1OCCCN1CCOCC1; result = 77.2%
SMILES = Cc1nc(-c2ccccc2)c(-c2ccncc2)o1; result = 86%
SMILES = CC(C)[C@H](CO)Nc1nc(Nc2cc(N)cc(Cl)c2)c2ncn(C(C)C)c2n1; result = 85.6%
SMILES = O=C1NC(=O)C(c2cn(CCCO)c3ncccc23)=C1c1cnccn1; result = 101%
SMILES = O=S(=O)(c1cccc2cnccc12)N1CCCNCC1; result = 96.1%
SMILES = Nc1ccc2ncnc(NCCc3ccc(Oc4ccccc4)cc3)c2c1; result = 93.3%
SMILES = C#Cc1cccc(Nc2ncnc3cc(OCCOC)c(OCCOC)cc23)c1; result = 85.9%
SMILES = OCC(O)CCON=C1C(c2c(O)[nH]c3ccccc23)=Nc2ccccc21 (stereo not drawn); result = 73.3%
SMILES = NCCNc1ncc(C(N)=O)c(Nc2cccc(C(F)(F)F)c2)n1; result = 69%
SMILES = Oc1ccc(-c2nc(-c3ccncc3)c(-c3ccc(F)cc3)[nH]2)cc1; result = 50.3%
SMILES = O=c1c2ccccc2[nH]c(=S)n1CCN1CCC(=C(c2ccc(F)cc2)c2ccc(F)cc2)CC1; result = 100%
SMILES = O=C(O)c1ccc2c3c1cccc3c(=O)n1c3ccccc3nc21; result = 91.1%
SMILES = CN(C)c1ccc(C=C2C(=O)Nc3ccccc32)cc1; result = 98.8%

Further values, each from its own experiment
SMILES = Cc1cc(O)cc(C)c1Cl; cell line = HaCaT; conditions = 100 µM, 36 h; measurement = viability; result = 73.7%
